Assay results from different studies.
Each line is one published result; not all experiments were run side by side. ± marks the error that the study gave.

SMILES | test | test system | setting | how to read | quantity | result
Cc1cccc(Cn2nc(C3CC3)c3c(NC(=O)c4cnc5cc(OCCN6CCN(C)CC6)ccn45)cccc32)n1 | CTCAE v4.03, measured: all adverse events | advanced solid tumour patients | oral, dose not given, all cohorts, together with: pembrolizumab IV every 3 weeks |  | all-cause adverse events | 98.2%
C=C(C)[C@@H]1CCC(C)=C[C@H]1c1c(O)cc(CCCCC)cc1O |  | human | 750 mg, trial 17074, together with: rifampicin 600 mg |  | subjects with Nausea | 6%
CC1(C)[C@@H](O[C@H]2O[C@H](C(=O)O)[C@@H](O)[C@H](O)[C@H]2O[C@@H]2O[C@H](C(=O)O)[C@@H](O)[C@H](O)[C@H]2O)CC[C@]2(C)[C@H]3C(=O)C=C4[C@@H]5C[C@@](C)(C(=O)O)CC[C@]5(C)CC[C@@]4(C)[C@]3(C)CC[C@@H]12 |  | Sprague Dawley rat, plasma | oral, 10 g lyophilized powder/kg, high dose |  | Vz/F | 0.37 ± 0.12 L/kg
CC(C)C[C@@H]1NC(=O)CNC(=O)[C@H](CC(N)=O)NC(=O)[C@H](CCCNC(=N)N)NC(=O)[C@H]([C@@H](C)O)NC(=O)[C@@H]2CSSC[C@@H]3NC(=O)[C@H]([C@@H](C)O)NC(=O)CNC(=O)CNC(=O)[C@H](C(C)C)NC(=O)[C@@H]4CSSC[C@H](NC(=O)[C@H]([C@@H](C)O)NC(=O)[C@H](CSSC[C@H](NC(=O)[C@H](C(C)C)NC(=O)[C@@H]5CCCN5C1=O)C(=O)NCC(=O)N[C@@H](CCC(=O)O)C(=O)N[C@@H]([C@@H](C)O)C(=O)N4)NC(=O)CNC(=O)[C@@H]1CCCN1C(=O)[C@H]([C@@H](C)O)NC(=O)[C@H](CC(N)=O)NC3=O)C(=O)N[C@@H](CO)C(=O)N[C@@H](Cc1c[nH]c3ccccc13)C(=O)N1CCC[C@H]1C(=O)N[C@@H](CCCCN)C(=O)N2 | HPLC | ammonium bicarbonate | 180 µM, 14 days, pH 9.0, 25 °C, deamidation stability |  | remaining peptide | 82 ± 1.9%
CC(C)[C@@H]1NC(=O)CNC(=O)[C@H](CC(N)=O)NC(=O)[C@H](CCCNC(=N)N)NC(=O)[C@H](Cc2ccc(O)cc2)NC(=O)[C@H](C(C)C)NC(=O)[C@@H](NC(=O)[C@@H](NC(=O)[C@H](CC(N)=O)NC(=O)[C@H](Cc2c[nH]c3ccccc23)NC(=O)[C@H](C)NC(=O)[C@H](Cc2ccccc2)NC(=O)CN)C(C)C)CSSC[C@@H](C(=O)N[C@@H](Cc2c[nH]cn2)C(=O)N[C@@H](CCCNC(=N)N)C(=O)N[C@@H](CCCNC(=N)N)C(=O)N[C@@H](C)C(=O)N[C@@H](CC(N)=O)C(N)=O)NC(=O)[C@H](C(C)C)NC(=O)[C@H](CCCNC(=N)N)NC1=O | circular dichroism, measured: Parallel | PBS | 80 µM, pH 7.4, together with: LPS 1 µM |  | secondary structure content | 3.08%
CCN1[C@@H](C(=O)NC23CCC(C(=O)O)(CC2)CC3)[C@H](c2cccc(Cl)c2F)[C@]2(C(=O)Nc3cc(Cl)ccc32)C12CCCCC2 |  | patients with advanced solid tumours | oral, 200 mg |  | Embolism incidence | 50%
CN1CCN(c2ccc(Nc3nccc(-c4ccc(F)cc4)n3)cc2C(F)(F)F)CC1 |  | Danio rerio embryos | 5 µM, 5 d |  | toxicity | 97 ± 3.5%
COc1cc2c(cc1OC)CN(CCc1ccc(NC(=O)c3cccc4c(=O)c5cccc(OC)c5[nH]c34)cc1)CC2 |  | CD-1 mouse, male, plasma | intraperitoneal, 0.3 mg/kg |  | AUC(0-t) | 448 ng·h/mL
COc1ccc(-c2c(-c3ccc(C#N)c(F)c3)nc(N3CCC(N)CC3)n(C)c2=O)cc1F | measured: Thrombocytopenia | human patients | oral, 60 mg, dose expansion |  | serious adverse event incidence | 5%
O=C(Nc1ccccc1)C1CCN(C(=O)Oc2cccnc2)CC1 |  | healthy women | oral, 60 mg, 7 days |  | adverse event Dyspnoea | 0%
COc1ccnc(C(=O)N[C@H]2COC(=O)[C@H](Cc3ccccc3)[C@@H](OC(=O)C(C)C)[C@H](C)OC2=O)c1OCOC(=O)C(C)C | soil adsorption | clay loam soil | pH 7.2, organic carbon 4.4 % |  | KFoc | 3110 mL/g
Cc1ncnc2c1ccn2[C@@H]1C[C@H](Oc2cc(C(F)F)c(F)c3c2CNCC3)[C@@H](O)[C@H]1O |  | patients | grade ≥3 | relative to: patients | Nausea incidence | 0%
C[C@H]1C[C@@H](N2C(=N)N[C@](C)(c3cccc(NC(=O)c4cccc(C#N)c4)c3Cl)CC2=O)CCO1 |  | rat | 500 mg/kg, every other day |  | glucose change | 55%
CC[C@H](C)[C@H](NC(C)=O)C(=O)N[C@H]1CSSC[C@@H](C(=O)N[C@H](C(N)=O)[C@@H](C)O)NC(=O)[C@H](CCCNC(=N)N)NC(=O)[C@H](Cc2c[nH]cn2)NC(=O)[C@](C)(CC)NC(=O)CNC(=O)[C@H](Cc2c[nH]c3ccccc23)NC(=O)[C@H](CC(=O)O)NC(=O)[C@H](CCC(N)=O)NC(=O)[C@H](Cc2c[nH]c3ccccc23)NC(=O)[C@H](C(C)C)NC1=O | isocratic RP-HPLC | C18 column | pH 7.4, 25 °C, elution method 2 | higher = more lipophilic | log retention factor | 0.082
C[C@]1(CO)Cc2ncn(-c3ccc(C#N)c(Cl)c3)c2C(=O)O1 | investigator-assessed | human | 80 mg single dose |  | subjects with drug-related TEAEs | 14.3%
c1ccc2c(c1)ccc1cc3c(ccc4ccccc43)cc12 |  | fresh water | 12 (unit not given), 20 °C, SSP sampler, 100 µm |  | log K(PDMS-water) | 5.07 ± 0.21
C=CC(=O)Nc1cc(Nc2nccc(Nc3cc(Cl)c(F)cc3C(C)(C)O)n2)c(OC)cc1N1CC[C@@H](N(C)C)C1 |  | human patients | oral, 400 mg, treatment-emergent adverse events |  | patients with nausea | 40%
O=C(O)CCCOc1ccc(F)cc1-c1cc(-c2ccccc2C(F)(F)F)n(-c2ccccc2)n1 | measured: T-Bil | Crl:CD(SD) rats, female, blood | iv, 25 µg/kg, 1 day |  | blood chemistry | 0.12 ± 0.01 mg/dL
NC(=O)[C@H]1CCN(c2ncnc(N)c2F)C[C@@H]1N1CCC[C@@H](Nc2cc(Cl)cc(C(F)(F)F)c2)C1=O |  | B-cell malignancy patients | oral, 41 mg twice daily, dose |  | grade ≥3 neutropenia | 30%

SMILES | test | test system | setting | how to read | quantity | result
C=CCNc1c(O)cc2c(O)c1C[C@@H](C)C[C@H](OC)[C@H](O)[C@@H](C)/C=C(\C)[C@H](OC(N)=O)[C@@H](OC)/C=C\C=C(/C)C(=O)N2 |  | unresectable or metastatic STS, GIST, other | intravenous, 400 mg/m^2 |  | patients with myalgia TEAE | 34%
CCN(CCO)CCCC(C)Nc1ccnc2cc(Cl)ccc12 (centres unmarked) |  | newly diagnosed glioblastoma patients | oral, 200 mg/dose, grade 2, together with: radiotherapy and temozolomide |  | white cell decrease patients | 33%
CC(=O)c1c(C)c2cnc(Nc3ccc(C4CCN(CCS(C)(=O)=O)CC4)cn3)nc2n(C2CCCC2)c1=O |  | human, plasma | oral, 100 mg, day 1 single dose |  | elimination rate constant | 3.33e-05 s⁻¹
COc1cc2c(Oc3ccc4[nH]c(C)cc4c3F)ccnc2cc1OCC1(N)CC1 |  | paediatric refractory sarcoma patients | 8 mg |  | grade 1-2 T-wave abnormality | 0%
CCc1ccc(CC/C=C/c2ccc3c(c2)C(=O)CC3)cc1 |  | Sprague-Dawley rat, female | oral, 30 mg/kg/day, 14 days |  | Mononuclear percentage | 2.1%
O=S(=O)(Nc1ccccc1)c1ccc(NC(=S)Nc2ccccc2)cc1 | measured: BA% | female mouse, blood | oral, 5 mg/kg daily, 14 days |  | blood cell fraction | 0.12%
CC[C@H](C)[C@@H]1NC(=O)[C@@H]2CCCN2C(=O)[C@H](CC(C)C)NC(=O)[C@H](CC(C)C)NC(=O)CNC(=O)[C@@H](NC(=O)[C@@H](NC(=O)[C@H](CC(=O)O)NC(=O)CNC(=O)[C@@H](NC(=O)[C@H](C)NC(=O)CNC(=O)[C@H](CCCCN)NC(=O)[C@H](CC(C)C)NC(=O)[C@H](CC(C)C)NC(=O)[C@H](CCCCN)NC(=O)CNC(=O)[C@@H](NC(=O)[C@@H](N)CC(C)C)C(C)C)C(C)C)C(C)C)CSSC[C@@H](C(=O)O)NC1=O | two-compartment model | female C57BL/6 mouse, plasma | intravenous, 10 mg/kg |  | elimination half-life (beta) | ~395 min
Clc1ccc(-c2ccccc2)cc1 |  | Sprague-Dawley rats, female, serum | inhalation, 23 µg/rat, 1 h after exposure |  | glucose | 304 ± 115 mg/dL
CN1CC[C@@H](c2c(O)cc(O)c3c(=O)cc(-c4ccc(C(F)(F)F)cc4Cl)oc23)[C@@H]1CO | measured: Diarrhea | relapsed or refractory haematological malignancies | oral, dose not given, all grades |  | adverse event incidence | 30%
CC(C)C[C@@H]1NC(=O)CNC(=O)[C@H](CC(N)=O)NC(=O)[C@H](CCCNC(=N)N)NC(=O)[C@H]([C@@H](C)O)NC(=O)[C@@H]2CSSC[C@@H]3NC(=O)[C@H]([C@@H](C)O)NC(=O)CNC(=O)CNC(=O)[C@H](C(C)C)NC(=O)[C@@H]4CSSC[C@H](NC(=O)[C@H]([C@@H](C)O)NC(=O)[C@H](CSSC[C@H](NC(=O)[C@H](C(C)C)NC(=O)[C@@H]5CCCN5C1=O)C(=O)NCC(=O)N[C@@H](CCC(=O)O)C(=O)N[C@@H]([C@@H](C)O)C(=O)N4)NC(=O)CNC(=O)[C@@H]1CCCN1C(=O)[C@H]([C@@H](C)O)NC(=O)[C@H](CCCCN)NC3=O)C(=O)N[C@@H](CO)C(=O)N[C@@H](Cc1c[nH]c3ccccc13)C(=O)N1CCC[C@H]1C(=O)N[C@@H](C(C)C)C(=O)N2 | HPLC | ammonium bicarbonate | 180 µM, 7 days, pH 9.0, 25 °C, deamidation stability |  | remaining peptide | 95.5 ± 0.9%
O=[N+]([O-])c1cc2c3c(ccc2c2ccccc12)[C@H](O)[C@@H](O)C=C3 |  | female Sprague-Dawley rats | intramammary, dose not given |  | first palpable mammary tumour | 23 weeks
O=C1Nc2cc3[nH]nc(-c4ccncc4)c3cc2CN1Cc1ccccc1 | CTCAE v4.03 | advanced solid tumour patients | intravenous, 0.45 mg/kg, schedules 1/2 |  | patients with cough | 0%
Cc1cc2ncn(-c3ccc(OC(C)(C)C)cc3)c2cc1-c1ccc(OC(C)(C)O)cc1 |  |  | pH 7.4 |  | aqueous solubility | > 100 µM
c1ccc2c(c1)cc1ccc3cccc4ccc2c1c34 |  | fresh water | 12 (unit not given), 20 °C, S100 sampler, 100 µm |  | log K(PDMS-water) | 5.21 ± 0.01
CN[C@H]1CC[C@@H](c2ccc(Cl)c(Cl)c2)c2ccccc21 |  | CD-1 mouse, male, lung | intraperitoneal, 10 mg/kg |  | Tmax | 30 min
Clc1cc(-c2cc(Cl)c(Cl)c(Cl)c2)cc(Cl)c1Cl |  | fresh water | 20 °C, S100 sampler, 100 µm |  | log K(PDMS-water) | 6.35 ± 0.07
CO[C@H]1C[C@@H]2CC[C@@H](C)[C@@](O)(O2)C(=O)C(=O)N2CCCC[C@H]2C(=O)O[C@H]([C@H](C)C[C@@H]2CC[C@@H](OC(=O)NCCOCCOCCOCCOCCOCCOCCOCCOCCC(=O)N3CCc4cc(Cn5nc(-c6ccc7oc(N)nc7c6)c6c(N)ncnc65)ccc4C3)[C@H](OC)C2)C[C@@H](O)[C@H](C)/C=C(\C)[C@@H](O)[C@@H](OC)C(=O)[C@H](C)C[C@H](C)/C=C/C=C/C=C/1C |  | patients with advanced solid tumours | intravenous, 6 mg weekly, grade 3 or higher |  | anaemia incidence | 16.7%
N[C@@H]1c2ccccc2OC12CCN(c1cnc3c(N4CCCc5ncccc54)n[nH]c3n1)CC2 |  | advanced solid tumour patients | oral, 100 mg once daily |  | patients with grade ≥3 TEAE | 42.9%
CC(C)CC(=O)OC[C@H]1O[C@@](C#N)(c2ccc3c(N)ncnn23)[C@H](O)[C@@H]1O |  | Sprague-Dawley rat, male, urine | 80 mg/kg, time not given | relative to: dose | recovery in urine | 0.00282%

Repeated from above:
SMILES | test | test system | setting | how to read | quantity | result
CC(C)C[C@@H]1NC(=O)CNC(=O)[C@H](CC(N)=O)NC(=O)[C@H](CCCNC(=N)N)NC(=O)[C@H]([C@@H](C)O)NC(=O)[C@@H]2CSSC[C@@H]3NC(=O)[C@H]([C@@H](C)O)NC(=O)CNC(=O)CNC(=O)[C@H](C(C)C)NC(=O)[C@@H]4CSSC[C@H](NC(=O)[C@H]([C@@H](C)O)NC(=O)[C@H](CSSC[C@H](NC(=O)[C@H](C(C)C)NC(=O)[C@@H]5CCCN5C1=O)C(=O)NCC(=O)N[C@@H](CCC(=O)O)C(=O)N[C@@H]([C@@H](C)O)C(=O)N4)NC(=O)CNC(=O)[C@@H]1CCCN1C(=O)[C@H]([C@@H](C)O)NC(=O)[C@H](CCCCN)NC3=O)C(=O)N[C@@H](CO)C(=O)N[C@@H](Cc1c[nH]c3ccccc13)C(=O)N1CCC[C@H]1C(=O)N[C@@H](C(C)C)C(=O)N2 | HPLC | ammonium bicarbonate | 180 µM, 7 days, pH 9.0, 25 °C, deamidation stability |  | remaining peptide | 95.5 ± 0.9%
COc1cc2c(Oc3ccc4[nH]c(C)cc4c3F)ccnc2cc1OCC1(N)CC1 |  | paediatric refractory sarcoma patients | 8 mg |  | grade 1-2 T-wave abnormality | 0%
O=C(Nc1ccccc1)C1CCN(C(=O)Oc2cccnc2)CC1 |  | healthy women | oral, 60 mg, 7 days |  | adverse event Dyspnoea | 0%
